Measured values gathered from unrelated publications.

Structure (SMILES) = CC(C)n1c(Nc2cccnc2)nc2cnc(Nc3ccc(N4CCN(C)CC4)cc3)nc21; test = item: skin and subcutaneous disorders (SOC); system = healthy human, male; setting = oral, dose not given, CTCAE grade 1-3; endpoint = subjects with TEAE; result = 4.8%
Structure (SMILES) = CO[C@]1(C(=O)N[C@@H](C)c2ccc(-n3cc(F)cn3)nc2)CC[C@H](c2nc(C)cc(Nc3cc(C)[nH]n3)n2)CC1; system = healthy human, both sexes; setting = oral, 200 mg; endpoint = subjects with constipation; result = 20%
Structure (SMILES) = Cc1cc(Nc2cc3ncccc3c(N[C@@H]3C[C@H]4CC[C@@H](C3)N4CCC#N)n2)n[nH]1; system = healthy human; setting = oral, 100 mg single dose, 2 weeks; endpoint = subjects with contact dermatitis; result = 50%
Structure (SMILES) = CN(Cc1cnc2nc(N)nc(N)c2n1)c1ccc(C(=O)N[C@@H](CCC(=O)O)C(=O)O)cc1; test = item: gastrointestinal disorders; system = healthy human; setting = oral, dose not given; endpoint = subjects with adverse event; result = 0%
Structure (SMILES) = CN1C(=O)[C@@H](NC(=O)c2nnc(Cc3ccccc3)[nH]2)COc2cccnc21; system = human, fasted; setting = oral, 100 mg single dose; endpoint = subjects with headache; result = 16.7%
Structure (SMILES) = C[C@H]1O[C@@H](O[C@H]2[C@@H](O)C[C@H](O[C@H]3[C@@H](O)C[C@H](O[C@H]4CC[C@@]5(C)[C@H](CC[C@@H]6[C@@H]5C[C@@H](O)[C@]5(C)[C@@H](C7=CC(=O)OC7)CC[C@]65O)C4)O[C@@H]3C)O[C@@H]2C)C[C@H](O)[C@@H]1O; test = item: Dizziness; system = healthy human; setting = oral, dose not given; endpoint = subjects with adverse event; result = 0%
Structure (SMILES) = CCC(C)n1ncn(-c2ccc(N3CCN(c4ccc(OCC5COC(Cn6cncn6)(c6ccc(Cl)cc6Cl)O5)cc4)CC3)cc2)c1=O (stereo not shown); system = healthy humans; setting = oral, 200 mg, dosed days 8 and 9; endpoint = subjects with abdominal pain; result = 0%
Structure (SMILES) = CC(C)(C(=O)N1CCOc2c(C#N)cncc2C1)C(F)F; system = human, both sexes; setting = oral, 10 mg single dose; endpoint = subjects with fatigue TEAE; result = 0%
Structure (SMILES) = O=C(COc1ccc(Cl)cc1)NC12CC(c3nnc([C@H]4C[C@@H](OC(F)(F)F)C4)o3)(C1)C2; system = humans; setting = 200 mg once daily, highest severity; endpoint = subjects with moderate TEAE; result = 42.9%
Structure (SMILES) = CC(=O)N(C)[C@H]1CCN(C(=O)c2cnc3c(c2)C[C@](C)(c2ccc(F)cc2)N3)C1; system = healthy male humans; setting = oral, dose not given, multiple rising dose; endpoint = subjects with AEs leading to discontinuation; result = 4.2%
Structure (SMILES) = CO[C@H]1C[C@@H]2CC[C@@H](C)[C@@](O)(O2)C(=O)C(=O)N2CCCC[C@H]2C(=O)O[C@H]([C@H](C)C[C@@H]2CC[C@@H](O)[C@H](OC)C2)CC(=O)[C@H](C)/C=C(\C)[C@@H](O)[C@@H](OC)C(=O)[C@H](C)C[C@H](C)/C=C/C=C/C=C/1C; system = healthy human subjects; setting = oral, dose not given; endpoint = subjects with TEAEs; result = 13.6%
Structure (SMILES) = CC[C@H](C)[C@H](NC(=O)[C@H](Cc1ccccc1)NC(=O)[C@H](CCC(=O)O)NC(=O)[C@H](CCCCNC(=O)COCCOCCNC(=O)COCCOCCNC(=O)CC[C@H](NC(=O)CCCCCCCCCCCCCCCCC(=O)O)C(=O)O)NC(=O)[C@H](C)NC(=O)[C@H](C)NC(=O)[C@H](CCC(N)=O)NC(=O)CNC(=O)[C@H](CCC(=O)O)NC(=O)[C@H](CC(C)C)NC(=O)[C@H](Cc1ccc(O)cc1)NC(=O)[C@H](CO)NC(=O)[C@H](CO)NC(=O)[C@@H](NC(=O)[C@H](CC(=O)O)NC(=O)[C@H](CO)NC(=O)[C@@H](NC(=O)[C@H](Cc1ccccc1)NC(=O)[C@@H](NC(=O)CNC(=O)[C@H](CCC(=O)O)NC(=O)C(C)(C)NC(=O)[C@@H](N)Cc1cnc[nH]1)[C@@H](C)O)[C@@H](C)O)C(C)C)C(=O)N[C@@H](C)C(=O)N[C@@H](Cc1c[nH]c2ccccc12)C(=O)N[C@@H](CC(C)C)C(=O)N[C@H](C(=O)N[C@@H](CCCNC(=N)N)C(=O)NCC(=O)N[C@@H](CCCNC(=N)N)C(=O)NCC(=O)O)C(C)C; system = healthy human; setting = subcutaneous, 0.25 to 1.5 mg weekly, 16 weeks; endpoint = subjects with recovered adverse events; result = 83.1%
Structure (SMILES) = CC(C)c1c(C(=O)Nc2ccccc2)c(-c2ccccc2)c(-c2ccc(F)cc2)n1CC[C@@H](O)C[C@@H](O)CC(=O)O; test = item: any adverse event; system = healthy human; setting = oral, dose not given; how to read = relative to: subjects; endpoint = subjects with adverse event; result = 3%
Structure (SMILES) = C[C@@H](Oc1ccc(S(C)(=O)=O)cc1C(=O)N1C[C@@H]2C[C@]2(c2cc(C(F)(F)F)on2)C1)C(F)(F)F; system = human; setting = oral, 25 mg; endpoint = subjects with psychiatric disorders; result = 16.7%
Structure (SMILES) = Cc1nc(Nc2ncc(C(=O)Nc3c(C)cccc3Cl)s2)cc(N2CCN(CCO)CC2)n1; system = human; setting = oral, 100 mg; endpoint = subjects with related TEAE; result = 61.1%
Structure (SMILES) = Cc1cc(-c2nccc3c2ccn3CC(=O)Nc2ccc(-c3cnccn3)cn2)ccn1; system = human; setting = 15 mg once daily, multiple ascending dose; endpoint = subjects with Folliculitis adverse event; result = 0%
Structure (SMILES) = COC(=O)N[C@H](C(=O)N1CCC[C@H]1c1ncc(-c2cc(F)c3c(c2)O[C@@H](c2cnc(C4CC4)s2)n2c-3cc3cc(-c4cnc([C@@H]5CCCN5C(=O)[C@@H](NC(=O)OC)C(C)C)[nH]4)ccc32)[nH]1)C(C)C; system = healthy adult human; setting = oral, 180 mg, 6 days, compound alone; endpoint = subjects with heavy menstrual bleeding; result = 0%
Structure (SMILES) = CO[C@H]1/C=C/O[C@@]2(C)Oc3c(C)c(O)c4c(O)c(c(/C=N/N5CCN(C)CC5)c(O)c4c3C2=O)NC(=O)/C(C)=C\C=C\[C@H](C)[C@H](O)[C@@H](C)[C@@H](O)[C@@H](C)[C@H](OC(C)=O)[C@@H]1C; test = item: rash papular; system = humans; setting = oral, dose not given; endpoint = subjects with TEAEs; result = 0%
Structure (SMILES) = C=CC[C@@H]1/C=C(\C)C[C@H](C)C[C@H](OC)[C@H]2O[C@@](O)(C(=O)C(=O)N3CCCC[C@H]3C(=O)O[C@H](/C(C)=C/[C@@H]3CC[C@@H](O)[C@H](OC)C3)[C@H](C)[C@@H](O)CC1=O)[C@H](C)C[C@@H]2OC; system = healthy human subjects; setting = oral, dose not given; endpoint = subjects with TEAEs; result = 33.3%
Structure (SMILES) = CN1CCN(c2cccc3c2CCN(C(=O)/C=C/c2c(-n4cnnn4)ccc(Cl)c2F)[C@@H]3C(=O)Nc2ccc(C(=O)O)cc2)C(=O)C1; system = healthy human subjects; setting = intravenous infusion, 1.5 mg/h, 2 h; endpoint = subjects with serious adverse event; result = 0%
Structure (SMILES) = CN(C)C(=N)N=C(N)N; test = item: Vomiting; system = healthy human; setting = oral, dose not given; endpoint = subjects with adverse event; result = 0%
Structure (SMILES) = C[C@@H](N)c1cc(Cl)ccc1Cn1c(=S)[nH]c(=O)c2[nH]ccc21; system = human matched controls; setting = oral, 2.5 mg single dose; endpoint = subjects with nausea; result = 10%
Structure (SMILES) = C[C@H]1CN(C(=O)CC#N)[C@]12CCN(c1ncnc3[nH]ccc13)C2; system = healthy human; setting = oral, dose not given; endpoint = subjects with Arthralgia; result = 3.1%
Structure (SMILES) = CC(=O)CC(c1ccccc1)c1c(O)c2ccccc2oc1=O (stereo not shown); system = human; setting = concentration not given, trial 1; endpoint = subjects with TEAE; result = 12%
Structure (SMILES) = C=C(C)[C@@H]1CC[C@]2(NCCN3CCS(=O)(=O)CC3)CC[C@]3(C)[C@H](CC[C@@H]4[C@@]5(C)CC=C(C6=CC[C@@](CF)(C(=O)O)CC6)C(C)(C)[C@@H]5CC[C@]43C)[C@@H]12; system = healthy human volunteers; setting = oral, 500 mg, 7 days; endpoint = subjects with back pain; result = 0%
